Measurements of several laboratories.
± marks the error that the study gave.

C#CCNC(=O)C(CC)C1CCC(C)C(C(C)C(O)C(C)C(=O)C(CC)C2OC3(C=CC(O)C4(CCC(C)(C5CCC(O)(CC)C(C)O5)O4)O3)C(C)CC2C)O1 (stereo not drawn) gave an IC50 of 9.4 µM (ALL5; cell growth or viability, MTT; 5 days).
CCc1ccc([C@H](C)CC(=O)N[C@@H]2O[C@H](COC(C)=O)[C@@H](OC(C)=O)[C@H](OC(C)=O)[C@H]2OC(C)=O)cc1 has an IC50 of 118 µM (human T-lymphocyte; cell growth or viability; 72 h).
The IC50 of CC[C@H](C)[C@H](NC(=O)[C@H](Cc1ccc(OP(=O)(O)O)cc1)NC(=O)[C@H](CC(=O)O)NC(=O)[C@H](CCCCN)NC(=O)CNC(=O)[C@H](CC(=O)O)NC(=O)[C@H](CCC(N)=O)NC(=O)[C@@H](N)CCC(N)=O)C(=O)N[C@H](C(=O)N[C@@H](CC(C)C)C(=O)N1CCC[C@H]1C(=O)N[C@H](C(=O)N[C@@H](CO)C(=O)N[C@@H](CCC(=O)O)C(=O)N[C@H](C(=O)N[C@@H](CCCCNC(=O)CNC(=O)[C@H](CCCCN)NC(=O)[C@H](CCCNC(=N)N)NC(=O)[C@H](Cc1ccccc1)NC(=O)[C@H](CCCNC(=N)N)NC(=O)[C@H](CCCNC(=N)N)NC(=O)[C@H](CCCNC(=N)N)NC(=O)[C@H](CO)NC(=O)[C@H](Cc1ccc(O)cc1)NC(=O)[C@H](CO)NC(=O)[C@H](CC(C)C)NC(=O)[C@H](CCCNC(=N)N)NC(=O)[C@@H](N)CCCNC(=N)N)C(N)=O)[C@@H](C)O)[C@@H](C)CC)C(C)C is reported as 24.7 µM (HPAEC; ERK1/2 phosphorylation, inhibitor, Western blot; 0.5 h pre-incubation, serum-free medium, together with: 1 ng/mL VEGF).
For CCCC(CCC)C(=O)[O][Pt]1([O]C(=O)C(CCC)CCC)[O]C(=O)C(=O)[O]1.NC1CCCCC1N, the IC50 was 10.2 µM (five cancer cell lines; cytotoxicity; mean over panel).
C=C[CH2][Pd-]([Cl])[Cl].CC(C)c1cccc(C(C)C)c1-n1c[n+](-c2c(C(C)C)cccc2C(C)C)c2c1-c1cccc3cccc-2c13 has an IC50 of 17 µM (NTERA2; cell growth or viability; 72 h, 3D culture).
With O=C(CCCCCCNc1ccc(C(=O)Nc2ccc(Cl)c(NC(=O)c3cccc(Cl)c3)c2)cn1)NO the IC50 was 0.027 µM (NIH3T3 Gli-luciferase; Hedgehog signalling reporter; 36 h, together with: Shh-N conditioned medium 20%).
O=C(/C=C/c1ccc(O)c(O)c1)OCCCC[P+](c1ccccc1)(c1ccccc1)c1ccccc1 has an IC50 of 119 µM (L02; cell growth or viability, SRB; 24 h).
For O=C(N[C@@H](Cc1coc2ccccc12)B(O)O)[C@@H]1C[C@H]2CC[C@@H]1O2, the IC50 was 0.367 µM (MM1.S; cell growth or viability, resazurin; 96 h).
CCCCc1ccc(C(=O)O[C@@H]2CC(=O)O[C@H](C)C/C=C/C=C/[C@H](O[C@H]3CC[C@H](N(C)C)[C@@H](C)O3)[C@H](C)C[C@H](CC=O)[C@H](O[C@@H]3O[C@H](C)[C@@H](O[C@H]4C[C@@](C)(O)[C@@H](O)[C@H](C)O4)[C@H](N(C)C)[C@H]3O)[C@H]2OC)cc1 has an IC50 of 4.68 µM (GES1; cell growth or viability, CCK-8; 72 h).
Fc1ccc2[nH]c(-c3cc4cc5c(cc4nc3Cl)OCO5)nc2c1 gave an IC50 of over 100 µM (BEL-7404; cell growth or viability, MTT; 48 h).
CN1CCN(C(=O)N(CCCCCCC(=O)NO)c2ccc(-c3ccc4cnn(C)c4c3)cc2)CC1 has an IC50 of 0.0388 µM (MM1.S; cell growth or viability, ATP luminescence; 72 h).
With CC(C)c1cccc(C(C)C)c1N=[C](NCc1cccc(N)c1)[AuH][Cl] the IC50 was over 100 µM (MRC5; cell growth or viability).
With COc1cc(O)c(-c2c(O)cc(OC)c3c2ccc2cc(O)ccc23)c2ccc3ccccc3c12 the IC50 was 8.42 µM (BV-2; NO release, inhibitor, Griess; LPS-stimulated).
c1ccc(-c2nc(-c3cccnc3)[nH]c2-c2ccccc2)cc1 gave an IC50 of 92.5 µM (BT-474; cell growth or viability, SRB; 24 h).
The IC50 of N[C@@H](Cc1c[nH]c2ccccc12)C(=O)NC(CC(=O)N[C@@H](Cc1ccccc1)C(=O)O)c1ccc2ccccc2c1 (stereo partly drawn) is reported as over 100 µM (BT-474; cell growth or viability, ATP luminescence; 72 h).
CCCn1c(-c2cccnc2)nc(-c2ccc(C)cc2)c1-c1ccc(C)cc1 has an IC50 of 97.1 µM (BT-474; cell growth or viability, SRB; 24 h).
With O=C(/C=C/c1ccc(-c2ccccc2)cc1)N[C@@H]1O[C@H](CO)[C@@H](O)[C@H](O)[C@H]1O the IC50 was 192 µM (human T-lymphocyte; cell growth or viability; 72 h).
For COc1c(O)c(Br)c2oc3c(Br)c(O)c(CC=C(C)C)c(O)c3c(=O)c2c1CC=C(C)C, the IC50 was 8.07 µM (SMMC-7721; cell growth or viability; 48 h).
For C[C@]1([N+](=O)[O-])C(=O)c2ccccc2O[C@@H]1CC(=O)Oc1ccccc1, the IC50 was over 100 µM (human Fibroblast; cell growth or viability, SRB; 96 h).
CC(C)c1cccc(C(C)C)c1[N+]#[C][Pd-]([Cl])([Cl])=[C](Nc1ccc(CN[C](Nc2c(C(C)C)cccc2C(C)C)=[Au][Cl])cc1)Nc1c(C(C)C)cccc1C(C)C gave an IC50 of over 100 µM (MRC5; cell growth or viability).
For COc1cc(N2CCN(C(=O)C3CCCN3)CC2)ccc1Nc1ncc(Cl)c(Nc2ccccc2P(C)(C)=O)n1 (stereo not drawn), the IC50 was 0.034 µM (NCI-H3122; cell growth or viability, CCK-8; 48 h).
CC[C@@]12CC(O)c3[nH]c4ccccc4c3CCN(C[C@H]3O[C@H]31)C2 (stereo partly drawn) gave an IC50 of over 100 µM (BV-2; cell growth or viability, MTT).
CCCCCCCCCCCCCCn1c(-c2cccnc2)nc(-c2ccc(C)cc2)c1-c1ccc(C)cc1 has an IC50 of over 100 µM (BT-474; cell growth or viability, SRB; 48 h).
For CC(C)c1cccc(C(C)C)c1[N+]#[C][Pt-]([Cl])([Cl])=[C](Nc1cccc(CN[C](NC(C)(C)C)=[Au][Cl])c1)Nc1c(C(C)C)cccc1C(C)C, the IC50 was over 100 µM (MRC5; cell growth or viability).
The IC50 of Cc1cc(O)cc2c1O[C@](C)(CCC[C@H](C)CCC[C@H](C)CCCC(C)C)CC2 is reported as 15.8 µM (C3PV; cell growth or viability, MTT; 24 h).
With COc1ccc2nc(Cl)c(-c3nc4cc(Br)ccc4[nH]3)cc2c1 the IC50 was 11.3 µM (BEL-7404; cell growth or viability, MTT; 48 h).
N=C(N)NCCC[C@@H](NC(=O)[C@H](Cc1c[nH]cn1)NC(=O)[C@H](CO)NC(=O)[C@H](Cc1c[nH]c2ccccc12)NC(=O)[C@H](Cc1c[nH]cn1)NC(=O)[C@@H]1CCC(=O)N1)C(=O)N[C@@H](Cc1c[nH]c2ccccc12)C(=O)N[C@@H](Cc1ccc(O)cc1)C(=O)N1CCC[C@H]1C(=O)NCC(N)=O gave an IC50 of 0.0009 ± 0.0004 µM (WPE-1-NB26-3; cell growth, inhibitor, sulforhodamine B staining; four days).
COc1ccc2nc(Cl)c(-c3nc4cc(F)ccc4[nH]3)cc2c1 gave an IC50 of over 100 µM (L02; cell growth or viability, MTT; 48 h).
With CN1CCN(/C=C/C(=O)c2ccc3[nH]c4ncc(-c5ccc(N6CCN(C)CC6)cc5)cc4c3c2)CC1 the IC50 was 0.36 µM (Ba/F3 NPM-ALK; cell proliferation, [3H]-thymidine incorporation).
The IC50 of O=C(NO)c1ccc(Cn2sc3ccccc3c2=O)cc1 is reported as 2.1 µM (MM1.S; cell growth or viability, ATP luminescence; 72 h).
With N#Cc1cccc(-c2ccc(=O)n(Cc3cccc(-c4ncc(OCC5CCN(CCCCCCCCC(=O)Nc6cccc7c6C(=O)N(C6CCC(=O)NC6=O)C7=O)CC5)cn4)c3)n2)c1 (stereo not drawn) the IC50 was 0.0214 µM (EBC-1; cell growth or viability, CCK-8; 72 h).
The IC50 of COc1ccc2nc(Cl)c(-c3nc4cc(Cl)ccc4[nH]3)cc2c1 is reported as 26.7 µM (BEL-7404; cell growth or viability, MTT; 48 h).
For COc1ccc2cc3[n+](cc2c1OCc1cn(Cc2ccccc2)nn1)CCc1cc2c(cc1-3)OCO2, the IC50 was 35.4 µM (SMMC-7721; cell growth or viability, MTT).
CO[C@@H]1[C@@H](O[C@@H]2O[C@H](C)[C@@H](O[C@H]3C[C@@](C)(O)[C@@H](OC(=O)CN(C)C)[C@H](C)O3)[C@H](N(C)C)[C@H]2O)[C@@H](CC=O)C[C@@H](C)[C@@H](O[C@H]2CC[C@H](N(C)C)[C@@H](C)O2)/C=C/C=C/C[C@@H](C)OC(=O)C[C@H]1O gave an IC50 of over 50 µM (GES1; cell growth or viability, CCK-8; 72 h).
With N#Cc1cccc(-c2ccc(=O)n(Cc3cccc(-c4ncc(OCC5CCN(CC(=O)NCCOCCNc6ccc7c(c6)C(=O)N(C6CCC(=O)NC6=O)C7=O)CC5)cn4)c3)n2)c1 (stereo not drawn) the IC50 was 0.00334 µM (EBC-1; cell growth or viability, CCK-8; 72 h).
CC/C(=C(\c1ccc(O)cc1)c1ccc(OCCN(C)CCOCCOCCOCCN(C)CCOc2ccc(/C(=C(/CC)c3ccccc3)c3ccc(O)cc3)cc2)cc1)c1ccccc1 has an IC50 of 0.11 µM (MCF7 (ER-positive); cell growth; 96 h).
With NCCNC(=O)c1ccc2[nH]c(/C(=N/Nc3ccc(F)cc3)c3ccc(O)cc3)nc2c1 the IC50 was 145 µM (NCI-H441; cell growth or viability, ATP luminescence; 72 h).
The IC50 of COc1ccc2nc(Cl)c(-c3nc4cc(C)c(C)cc4[nH]3)cc2c1 is reported as 39.9 µM (BEL-7404; cell growth or viability, MTT; 48 h).
O=C1NCC(Cc2ccccc2)N(CC2CCCN2CC(CC2CCCCC2)N2CC(Cc3ccc(O)cc3)N(CCc3ccccc3)C(=O)C2=O)C1=O (stereo not drawn) has an IC50 of 4 µM (SK-MEL-2; cell growth or viability, ATP luminescence; 72 h).
For COc1c(O)cc2oc3cc4c(c(O)c3c(=O)c2c1CCC(C)C)CC(O)O4 (stereo not drawn), the IC50 was 6.92 µM (SMMC-7721; cell growth or viability; 48 h).
The IC50 of CC(=O)NCCCN(C)CCCNc1cccc2c1C(=O)c1cccc(NCCCN(C)CCCNC(C)=O)c1C2=O is reported as 1.1 µM (Ca9-22; cell growth or viability, CCK-8; 48 h).
The IC50 of CO[C@@H]1[C@@H](O[C@@H]2O[C@H](C)[C@@H](O[C@H]3C[C@@](C)(O)[C@@H](OC(=O)c4ccccc4)[C@H](C)O3)[C@H](N(C)C)[C@H]2O)[C@@H](CC=O)C[C@@H](C)[C@@H](O[C@H]2CC[C@H](N(C)C)[C@@H](C)O2)/C=C/C=C/C[C@@H](C)OC(=O)C[C@H]1O is reported as 13.1 µM (GES1; cell growth or viability, CCK-8; 72 h).
COc1ccc2cc3[n+](cc2c1OCc1cn(Cc2ccc(C#N)cc2)nn1)CCc1cc2c(cc1-3)OCO2 has an IC50 of 57.3 µM (SMMC-7721; cell growth or viability, MTT).
The IC50 of C[C@]12CC/C(=N/O)C=C1CCC1C2CC[C@]2(C)/C(=C/c3ccccn3)CCC12 (stereo partly drawn) is reported as over 50 µM (human Fibroblast; cell growth or viability, resazurin; 72 h).
The IC50 of O=C(CCCCCCNC(=O)c1cc(C(=O)c2ccccc2)cn1Cc1ccc(F)cc1)NO is reported as 4.6 µM (SiHa; cell growth or viability, resazurin; 72 h).
With COc1ccc2cc3[n+](cc2c1OCc1cn(Cc2ccccc2Cl)nn1)CCc1cc2c(cc1-3)OCO2 the IC50 was 40 µM (SMMC-7721; cell growth or viability, MTT).
With CC1=C2[O][Ru-]([Cl])[O+]=C2C=CN1CCCCCCN1C=CC2=[O+][Ru-]([Cl])[O]C2=C1C.Cc1ccc(C(C)C)cc1.Cc1ccc(C(C)C)cc1 the IC50 was over 20 µM (KYSE-70; cell growth or viability, crystal violet; 96 h).
The IC50 of COc1ccc(CN2C[C@H](O)[C@H](O)[C@@H]2CO)cc1 is reported as 94 ± 10 µM (CEM-DNR daunorubicin resistant; MTS; 72 h).
Cc1cc2nc(-c3cc4ccccc4nc3Cl)[nH]c2cc1C gave an IC50 of 15.4 µM (BEL-7404; cell growth or viability, MTT; 48 h).
The IC50 of COc1ccc(-c2cnc3[nH]c4ccc(/C=C/c5ccccc5)cc4c3c2)cc1 is reported as 2 µM (Ba/F3 NPM-ALK; cell proliferation, [3H]-thymidine incorporation).
For N=C(N)NCCC[C@@H](N)C(=O)N[C@@H](CC(=O)N[C@H](Cc1ccccc1)C(=O)N[C@H](CC(=O)O)C(=O)O)c1ccc2ccccc2c1, the IC50 was over 100 µM (BT-474; cell growth or viability, ATP luminescence; 72 h).
